Measured values collected from several papers.
Compare with care: the assays were run in different laboratories. “And” joins repeats or separate records; there may be more than shown. ± marks the error that the study gave.

O=C(Nc1cnccc1Cl)N1CCN(Cc2ccc3c(c2)OC(F)(F)O3)CC1
AUC(0-tau) (elderly men and women, plasma; oral, 100 mg once daily, day 10, dosing interval 24 h): 9370 ng·h/mL

Oc1ccc(/C=C/c2cc(O)cc(O)c2)cc1
calcium (rat, azoxymethane-injected, blood at sacrifice; 10 mg/kg): 10.7 mg/dL and 10.3 mg/dL and 10.4 mg/dL

N[C@@H](Cc1cc(I)c(Oc2cc(I)c(O)c(I)c2)c(I)c1)C(=O)O
pKa (acidic): 3.9

CCO[C@H]1CCN(Cc2c(OC)cc(C)c3[nH]ccc23)[C@H](c2ccc(C(=O)O)cc2)C1
total Cmax (human severe hepatic impairment, plasma; oral, 200 mg single dose, median): 3400 ng/mL

COc1ccc([C@@H](O)c2cc(-c3ncnc4cc(N5CCOCC5)ccc34)c(F)cc2Cl)nn1
constipation TEAE incidence (locally advanced rectal cancer patients; 250 mg, together with: capecitabine and radiotherapy): 17%

O=C(Nc1nnc(Cl)s1)c1ccco1
maximum haemolysis (sheep erythrocytes; 1 h, pH 7.5): 1.5%

Cc1cc(-c2nnc(N)nc2-c2ccc(F)cc2)cc(Cl)n1
patients with treatment-related adverse events (item: Fatigue; human phase Ia/Ib mCRPC, immunotherapy-naive; oral, dose not given): 29.2%

CO[C@@H]1[C@H](OC(=O)N2CC(CCN3CCOCC3)C2)CC[C@]2(CO2)[C@H]1[C@@]1(C)O[C@@H]1CC=C(C)C
prothrombin time (humans; subcutaneous, 1.8 mg twice weekly for 4 weeks, day 28; baseline: baseline): 0.12 ± 0.44 s

C[C@@H]1COCCN1c1cc(C2([S@](C)(=N)=O)CC2)nc(-c2cc[nH]c3nccc2-3)n1
Anemia incidence (Japanese advanced solid tumour patients; oral, 160 mg twice daily, any grade): 66.7%

COc1ccc(C[C@@H](C)[C@@H](C)Cc2ccc(OC)c(OC)c2)cc1OC
Tmax (beagle dog female, plasma; oral, 1000 mg/kg/day, day 28, median): 1 h

CC(=O)Oc1ccccc1C(=O)O
mean blood pressure (male Hartley guinea pigs, anaesthetized; intravenous, 3 mg/kg group, baseline before infusion): 37 ± 0.1 mmHg

CCC(CC)C(=O)Oc1cccc(C(O)CCN)c1.O=CO (stereo not drawn)
ERG b-wave amplitude (scotopic ERG; BALB/cJ mice; intraperitoneal, 10 mg/kg, 4 h dark adaptation, together with: 10,000 lx photobleach, 10 min): 195 µV and 48 µV and 60 µV and 112 µV and 168 µV and 133 µV

CC(C)(C)c1ccc(O)c(CN(Cc2cc(C(C)(C)C)ccc2O)C2CCC(NC(N)=O)CC2)c1 (stereo not drawn)
t1/2 (C57BL/6 mouse, male, brain; intraperitoneal, oral, 10 mg/kg): ~420 min

Cc1ccc([C@@H]2O[C@H](CO)[C@@H](O)[C@H](O)[C@H]2O)cc1Cc1ccc(-c2ccc(F)cc2)s1
urinary chloride excretion change (Japanese type 2 diabetes patients; 200 mg, day 6, 24 h urine collection; baseline: baseline): -4.5 mEq

COc1nc(-c2cc(C)c(N[C@@H](C)c3cc(F)cc(F)c3)nn2)ccc1-n1cnc(C)c1
concentration (rat Sprague-Dawley male, brain; oral, 50 mg/kg daily for 9 days, 4 h after dose): 9080 ng/g

Cc1cc(-c2nccc3c2ccn3CC(=O)Nc2ccc(-c3cnccn3)cn2)ccn1
subjects with Folliculitis adverse event (human; 20 mg once daily, multiple ascending dose): 0%

COc1ccc2[nH]c([S+]([O-])Cc3ncc(C)c(OC)c3C)nc2c1 (stereo not drawn)
AUC(0-t) (healthy Chinese volunteers, plasma; oral, 20 mg, fed, CYP2C19 rapid metabolizers): 390 ± 250 ng·h/mL

CC[C@H](C)[C@H](NC(=O)CN)C(=O)N[C@@H](CC(C)C)C(=O)N[C@@H](CC(=O)O)C(=O)N[C@@H](C)C(=O)N[C@H](C(=O)N[C@@H](CCCCN)C(=O)N[C@@H](C)C(=O)N[C@H](C(=O)N[C@@H](C)C(=O)N[C@@H](CCCCN)C(=O)N[C@@H](C)C(=O)N[C@@H](C)C(=O)NCC(N)=O)[C@@H](C)CC)[C@@H](C)CC
mean residue ellipticity (circular dichroism at 222 nm; 30% TFE; 100 µM): -7090 deg cm2/dmol

CSc1nc2nnnc(O)c2s1
maximum haemolysis (sheep erythrocytes; 1 h, pH 7.5): 6.01%

COc1cc2[nH]c(C)c(-c3ccc(N(C)C)nc3)c(=O)c2cc1Cl
Papp (PAMPA; pH 7.4): 137 ×10⁻⁶ cm/s

COc1cccc(-c2cccc(Nc3nccc(NC4CCCCC4)n3)c2)c1
Papp (B to A) (MDCKII-WT cells; 10 µM, pH 7.4): 0.197 ± 0.134 ×10⁻⁶ cm/s

C[C@H]1O[C@@H](O[C@H]2CC[C@@]3(C)[C@@H](CC[C@]4(C)[C@@H]3C=C[C@]35OC[C@@]6(CCC(C)(C)C[C@H]63)[C@@H](O)C[C@]54C)[C@]2(C)CO)[C@H](O)[C@@H](O[C@@H]2O[C@H](CO)[C@@H](O)[C@H](O)[C@H]2O)[C@H]1O
plasma concentration (UHPLC-MS/MS; mouse, plasma; oral, 50 mg/kg, 12 h): 0 ng/mL

CO[C@H]1C[C@@H]2CC[C@@H](C)[C@@](O)(O2)C(=O)C(=O)N2CCCC[C@H]2C(=O)O[C@H]([C@H](C)C[C@@H]2CC[C@@H](OC(=O)NCCOCCOCCOCCOCCOCCOCCOCCOCCC(=O)N3CCc4cc(Cn5nc(-c6ccc7oc(N)nc7c6)c6c(N)ncnc65)ccc4C3)[C@H](OC)C2)C[C@@H](O)[C@H](C)/C=C(\C)[C@@H](O)[C@@H](OC)C(=O)[C@H](C)C[C@H](C)/C=C/C=C/C=C/1C
unbound Cmax (mice, plasma; intraperitoneal, 1 mg/kg, weekly dosing): 2 to 8 nM

CN1C(=O)[C@@H](NC(=O)c2nnc(Cc3ccccc3)[nH]2)COc2cccnc21
nasopharyngitis incidence (phase I multiple ascending dose; human, male and female; oral, 200 mg, 14 days): 0%

COc1cc2c3c(n(CCCN4CCOCC4)c(=O)c2cc1OC)-c1cc2c(cc1C3=O)OCO2
Cmax (beagle dog, female, plasma; intravenous infusion, 50 mg/m^2, 1 h infusion, vehicle 2): 257 ± 31 ng/mL

N#C[C@@]1(c2ccc3c(N)ncnn23)O[C@H](CO)[C@@H](O)[C@H]1O
recovery (plasma protein binding; monkey plasma; 1 µM, time not given): 93.4%

CC1(C)C=C(CNc2ccc3c(c2)Cc2cc(Br)ccc2-3)C(C)(C)N1[O]
brain/plasma ratio (mouse; intraperitoneal, 10 mg/kg, 1 h): 0.5

CC(C)(C(=O)N1CCOc2c(C#N)cncc2C1)C(F)F
subjects with TEAE (item: vascular disorders; healthy humans, both sexes; oral, 30 mg single dose): 16.7%

COc1cc(N)c(Cl)cc1C(=O)NC1CCN(CCCOc2ccc(F)cc2)CC1OC (stereo not drawn)
mean blood pressure (male Hartley guinea pigs, anaesthetized; intravenous, 1 mg/kg over 10 min, after infusion): 32 ± 0.2 mmHg

CNCCOC12CC3(C)CC(C)(CC(Cn4ncc(-c5ccc(N6CCc7cccc(C(=O)Nc8nc9ccccc9s8)c7C6)nc5C(=O)O)c4C)(C3)C1)C2
QTcV interval change (beagle dog, male, anaesthetised; intravenous bolus, 0.03 mg/kg, 10 min; baseline: baseline): -7 ms

Cc1nc(C(=O)NCC(=O)O)c(O)c2ccc(Oc3ccccc3)cc12
pKa (acidic): 3.5

C[C@@]1(c2cc(NC(=O)c3ccc(C#N)cn3)ccc2F)C=CSC(N)=N1
dose-normalised Cmax (elderly humans, both sexes, plasma; oral, 3 mg single dose): 5.72 ng/mL

Cc1cc(C#N)cc(C)c1Oc1nc(Nc2ccc(C#N)cc2)nc(N)c1Br
maximum supersaturated concentration (solvent-shift UV; FaSSIF with 0.1% HPMCAS-M): 95 µg/mL

FC(F)(F)c1ccc(CNc2ccc(Cc3c[nH]c4ncc(Cl)cc34)cn2)cn1
treatment-related adverse events (item: Dysgeusia; patients with advanced solid tumours, non-TGCT cohort; oral, 1000 mg/day, grade 3 or higher): 0%

O=C(O)CCC(=O)O.[2H]C([2H])([2H])Oc1cc(C)c2[nH]ccc2c1CN1CC[C@@H](C2CC2)C[C@H]1c1ccc(C(=O)O)cc1
CLss/F (human, plasma; 50 mg twice daily, day 10, multiple ascending dose): 2.16 L/h

N#Cc1ccc2c(c1)[C@H]1CCCN(C(=O)c3ccc4[nH]cnc4c3)[C@H]1C2
SHBG level (human males; 360 mg, end of trial): 30.4 nmol/L

O=C(Nc1nc2cccc(-c3ccc(CN4CCS(=O)(=O)CC4)cc3)n2n1)C1CC1
treatment-emergent adverse events (item: dysgeusia; human rheumatoid arthritis patients; oral, 200 mg once daily, 4 weeks, regardless of relatedness): 0%

CC(C)NCC(O)c1ccc(NS(C)(=O)=O)cc1 (racemic)
mean blood pressure (male Hartley guinea pigs, anaesthetized; intravenous, 1 mg/kg group, baseline before infusion): 41 ± 0.3 mmHg

Cc1ccc(Sc2ccccc2N2CCNCC2)c(C)c1
participants with TEAE (item: postural dizziness; healthy adult men; oral, 5 mg daily, 12 days): 0%

CC(C)[C@@H](CS(=O)(=O)C(C)C)N1C(=O)[C@@](C)(CC(=O)O)C[C@H](c2cccc(Cl)c2)[C@H]1c1ccc(Cl)cc1
AUC(0-inf) (FVB mice Abcb1a/b Abcg2 knockout, spinal cord; intravenous, 20 mg/kg): 8590 ± 214 ng·h/mL

N#CCNC(=O)c1ccc(-c2ccnc(Nc3ccc(N4CCOCC4)cc3)n2)cc1
Q/F (population PK model, NONMEM; human, plasma; oral, typical value, final model): 36.1 L/h

O=C(N[C@H](Cc1c[nH]c2ccccc12)C(=O)Nc1ccncc1)c1ccc(N2CCN(c3ccc(F)cc3F)CC2)cc1F
concentration (Swiss Webster mouse, female, liver; oral, 50 mg/kg, 8 h, 20% HPβCD vehicle): 47.7 µM

CCN1/C(=C/C(C)=O)Sc2ccc(F)cc21
QTc interval (Bazett) (cynomolgus monkey; oral, 10 mg/kg, 2 h post-dose): 326 ± 15 ms

CNC(=O)c1ccc(-c2cnc3ncc(Cc4ccc5ncccc5c4)n3n2)cc1F
alkaline phosphatase increase incidence (all grades) (CTCAE v4.0, any causality; human cancer patients; oral, 600 mg twice daily, expansion cohort at RP2D): 0%

C#Cc1cccc(Nc2ncnc3cc(OCCOC)c(OCCOC)cc23)c1
CL/F decrease (UPLC-MS/MS; Wistar rat, male, plasma; oral, four weeks, together with: CA 1000 mg/kg, high dose; baseline: control): 31%

CN(CC#N)C(=O)C[C@H](Nc1nc2ccccc2[nH]1)c1cccc(C(F)(F)F)c1
apparent volume of distribution (human; intravenous infusion, 1 mg/kg, 5 mg/mL formulation): 65.8 ± 16.3 L

Nc1nc2c(nc([N+](=O)[O-])n2[C@@H]2O[C@H](CO)[C@@H](O)[C@H]2O)c(=O)[nH]1
nucleoside remaining fraction (depurination, RP-HPLC; citrate-phosphate buffer 0.5 mM; 240 min, pH 5, 37 °C): 0.779

Cc1c(-c2ccc(N3CCc4cccc(C(=O)Nc5nc6ccccc6s5)c4C3)nc2C(=O)O)cnn1CC12CC3(C)CC(C)(C1)CC(OCCNCC[C@H](O)CO)(C3)C2
QTcV interval change (beagle dog, male, anaesthetised; intravenous infusion, 0.3 mg/kg/min, 75 min; baseline: vehicle): 14 ms

CC[C@@H]1CN(C(=O)NCC(F)(F)F)C[C@@H]1c1cnc2cnc3[nH]ccc3n12
Q/F (population PK model; human, plasma; oral, outliers re-estimated): 3.22 L/h

C[C@@H](O)CCOC(=O)C[C@@H](C)O
mean arterial pressure (human; oral drink, 60 min post dose, mean): 80 mmHg

Cn1c(C(F)(F)F)cc(=O)n(-c2cc(Oc3cccnc3OCC(=O)O)c(Cl)cc2F)c1=O
Cmax (beagle dog, male, plasma; oral capsule, 100 mg/kg/day epyrifenacil, day 1, 90-day study): 3120 ng/mL

CN1CCN(C(=O)c2ccccc2N(Cc2ccccc2)S(C)(=O)=O)CC1
pKa: 6.84

C[C@H]1O[C@@H](O[C@H]2[C@@H](O)C[C@H](O[C@H]3[C@@H](O)C[C@H](O[C@H]4CC[C@@]5(C)[C@H](CC[C@@H]6[C@@H]5C[C@@H](O)[C@]5(C)[C@@H](C7=CC(=O)OC7)CC[C@]65O)C4)O[C@@H]3C)O[C@@H]2C)C[C@H](O)[C@@H]1O
subjects with adverse event (item: arthropod bite; healthy men; oral, dose not given, 8 days, treatment-emergent, crossover trial): 0%

CC(C)C[C@H](NC(=O)[C@@H](Cc1c[nH]c2ccccc12)NC(=O)[C@H](Cc1ccc(O)cc1)NC(=O)[C@H](CO)NC(=O)[C@H](Cc1c[nH]c2ccccc12)NC(=O)[C@H](Cc1c[nH]cn1)NC(=O)[C@@H]1CCC(=O)N1)C(=O)N[C@@H](CCCNC(=N)N)C(=O)N1CCC[C@H]1C(=O)NCC(N)=O
patients, grade ≥3 TEAEs (Chinese CPP children, girls; intramuscular, 22.5 mg, 12 months, day 1, month 6): 0%

COc1ccc2c3c([nH]c2c1)[C@H](CC(C)C)N1C(=O)[C@H](CC(=O)NC(C)C)NC(=O)[C@@H]1C3
spleen to body weight ratio (wild-type mouse; oral, 100 mg/kg daily, 23 days): 0.28% and 0.29%

Cc1c2oc3c(C)ccc(C(=O)N[C@@H]4C(=O)N[C@H](C(C)C)C(=O)N5CCC[C@H]5C(=O)N(C)CC(=O)N(C)[C@@H](C(C)C)C(=O)O[C@@H]4C)c3nc-2c(C(=O)N[C@@H]2C(=O)N[C@H](C(C)C)C(=O)N3CCC[C@H]3C(=O)N(C)CC(=O)N(C)[C@@H](C(C)C)C(=O)O[C@@H]2C)c(N)c1=O
maximum plasma concentration (children with cancer, plasma; dose not given, 30 min): 40.7 µg/L

O=C1CC[C@H](N2Cc3cc(N4CCN(CC5CCN(c6ccc([C@@H]7c8ccc(O)cc8CC[C@@H]7c7ccccc7)cc6)CC5)CC4)ccc3C2=O)C(=O)N1
Clast (human, plasma; oral, 200 mg, 73.5 h, together with: rosuvastatin 10 mg): 93.8 ng/mL
